Experimental data pooled from the literature.
Organism: Pseudomonas aeruginosa

With `CC[C@H](C)[C@H](NC(=O)[C@H](Cc1c[nH]cn1)NC(=O)[C@H](CCCCNC(=O)[C@@H](NC(=O)[C@H](CCCCN)NC(=O)CSC[C@H](NC(=O)[C@H](Cc1ccccc1)NC(=O)[C@H](CCCCNC(=O)[C@H](CC(C)C)NC(=O)[C@H](CCCCN)NC(=O)[C@H](CCCCN)NC(=O)C[C@@H]1O[C@@H](C)[C@@H](O)[C@@H](O)[C@@H]1O)NC(=O)[C@H](CC(C)C)NC(=O)[C@H](CCCCN)NC(=O)[C@H](CCCCN)NC(=O)CCS[C@@H]1O[C@H](CO)[C@H](O)[C@H](O)[C@H]1O)C(N)=O)[C@@H](C)CC)NC(=O)[C@@H](NC(=O)[C@H](CCCCN)NC(=O)CSC[C@H](NC(=O)[C@H](Cc1ccccc1)NC(=O)[C@H](CCCCNC(=O)[C@H](CC(C)C)NC(=O)[C@H](CCCCN)NC(=O)[C@H](CCCCN)NC(=O)C[C@@H]1O[C@@H](C)[C@@H](O)[C@@H](O)[C@@H]1O)NC(=O)[C@H](CC(C)C)NC(=O)[C@H](CCCCN)NC(=O)[C@H](CCCCN)NC(=O)CCS[C@@H]1O[C@H](CO)[C@H](O)[C@H](O)[C@H]1O)C(N)=O)[C@@H](C)CC)C(N)=O` the MIC was greater than 64 µM (PAO1, LB medium).
For `CC(C)C[C@H](NC(=O)[C@H](CC(C)C)NC(=O)[C@H](CCCCN)NC(=O)CNC(=O)[C@H](CC(C)C)NC(=O)[C@H](CC(C)C)NC(=O)[C@H](CO)NC(=O)[C@H](CC(C)C)NC(=O)[C@H](CC(C)C)NC(=O)[C@H](CO)NC(=O)[C@H](CC(C)C)NC(=O)[C@H](CC(C)C)NC(=O)CN)C(N)=O`, the MIC was greater than 120 µM (broth microdilution).
For `CC(C)C[C@@H]1NC(=O)[C@H](CC(C)C)NC(=O)[C@H](CCCCN)NC(=O)CSC[C@@H]2NC(=O)[C@H](CC(C)C)NC(=O)[C@H](CCCCN)NC(=O)[C@H](CCCCNC1=O)NC(=O)[C@H](CC(C)C)NC(=O)[C@H](CC(C)C)NC(=O)[C@H](CCCCN)NC(=O)CSC[C@@H](C(N)=O)NC(=O)[C@H](CC(C)C)NC(=O)[C@H](CCCCN)NC(=O)[C@H](CCCCN)NC2=O`, the MIC was greater than 256 µg/mL (PAO1; 18 h).
The MIC of `Cc1ccc(C2OC(c3ccc(C)cc3)C(C)C(=NOCc3cn(-c4ccccc4)nn3)C2C)cc1` (stereo not drawn) is reported as 25 µg/mL (microbial growth, broth dilution; MTCC741; 24 h).
With `CC(C)C[C@H](NC(=O)[C@H](CCCCN)NC(=O)[C@H](CCCCNC(=O)[C@H](CC(C)C)NC(=O)[C@H](CCCCN)NC(=O)[C@H](CCCCNC(=O)[C@H](CC(C)C)NC(=O)[C@H](CCCCN)NC(=O)[C@H](CCCCNC(=O)[C@H](CC(C)C)NC(=O)[C@@H](N)CCCCN)NC(=O)[C@H](CC(C)C)NC(=O)[C@@H](N)CCCCN)NC(=O)[C@H](CC(C)C)NC(=O)[C@H](CCCCN)NC(=O)[C@H](CCCCNC(=O)[C@H](CC(C)C)NC(=O)[C@@H](N)CCCCN)NC(=O)[C@H](CC(C)C)NC(=O)[C@@H](N)CCCCN)NC(=O)[C@H](CC(C)C)NC(=O)[C@H](CCCCN)NC(=O)[C@H](CCCCNC(=O)[C@H](CC(C)C)NC(=O)[C@H](CCCCN)NC(=O)[C@H](CCCCNC(=O)[C@H](CC(C)C)NC(=O)[C@@H](N)CCCCN)NC(=O)[C@H](CC(C)C)NC(=O)[C@@H](N)CCCCN)NC(=O)[C@H](CC(C)C)NC(=O)[C@H](CCCCN)NC(=O)[C@H](CCCCNC(=O)[C@H](CC(C)C)NC(=O)[C@@H](N)CCCCN)NC(=O)[C@H](CC(C)C)NC(=O)[C@@H](N)CCCCN)C(N)=O` the MIC was 2 µg/mL (broth microdilution; PAO1; 37 °C).
With `CC(C)[C@@H]1NC(=O)[C@@H]2CCCN2C(=O)[C@@H](C)NC(=O)[C@H](CO)NC(=O)[C@H](C)NC(=O)[C@H](C(C)(C)C)NC(=O)[C@H](CCO)NC(=O)[C@H](Cc2c[nH]c3ccccc23)NC(=O)[C@H](CCO)NC(=O)[C@@H](CCN)NC(=O)[C@H](CCC(N)=O)NC(=O)[C@H](CCN)NC(=O)[C@H](Cc2ccc(O)cc2)NC(=O)[C@H]([C@@H](C)O)NC1=O` the MIC was greater than 64 µg/mL (broth microdilution; NDM1, NRZ 08418, CAMHB with polysorbate-80; 16 h, 37 °C, with: 0.002% polysorbate-80).
With `CCCCCCCC(=O)NCCCC[C@@H]1NC(=O)[C@H](CCCNC(=N)N)NC(=O)[C@H](CCCNC(=N)N)NC(=O)[C@H](CCCNC(=N)N)NC(=O)[C@H](CCCNC(=N)N)NC(=O)[C@H](CCCNC(=N)N)NC1=O` the MIC was greater than 129 µg/mL (broth microdilution; PAO1; 37 °C).
With `N=C(N)NCCC[C@@H]1NC(=O)[C@H](CCCNC(=N)N)NC(=O)[C@H](CCCNC(=N)N)NC(=O)[C@H](CCCNC(=N)N)NC(=O)[C@H](Cc2c[nH]c3ccccc23)NC(=O)[C@H](CCCNC(=N)N)NC(=O)[C@H](CCCNC(=N)N)NC(=O)[C@@H](N)CCCCn2cc(nn2)C[C@@H](C(N)=O)NC1=O` the MIC was 125 µg/mL (ATCC 27853; 24 h, 37 °C).
`CC(C)C[C@@H]1NC(=O)[C@H](CCN)NC(=O)CSC[C@@H](C(=O)N[C@@H](CCN)C(N)=O)NC(=O)[C@H](CC(C)C)NC(=O)[C@H](CC(C)C)NC(=O)[C@H](CC(C)C)NC(=O)[C@@H]2CSCC(=O)N[C@@H](CCN)C(=O)N[C@@H](CC(C)C)C(=O)N[C@@H](CCN)C(=O)N[C@@H](CCCCNC(=O)[C@H](CCN)NC1=O)C(=O)N[C@@H](CCN)C(=O)N[C@@H](CC(C)C)C(=O)N[C@@H](CC(C)C)C(=O)N2` has an MIC of 64 µg/mL (PAO1; 18 h).
With `CCCCCCCC/C=C\CCCCc1cc(=O)c2ccccc2n1C` the MIC was greater than 256 µg/mL (broth microdilution; Luria-Bertani broth).
`CC(C)[C@H](NC(=O)[C@H](CCCCN)NC(=O)[C@H](CCCNC(=N)N)NC(=O)[C@@H](NC(=O)[C@H](C)NC(=O)[C@H](CC(N)=O)NC(=O)[C@H](CCCNC(=N)N)NC(=O)[C@@H](NC(=O)[C@H](CCCCN)NC(=O)[C@H](CCCCN)NC(=O)[C@@H](NC(=O)[C@@H](NC(=O)[C@H](CCCNC(=N)N)NC(=O)[C@H](CCCNC(=N)N)NC(=O)[C@H](Cc1c[nH]c2ccccc12)NC(=O)[C@H](Cc1c[nH]c2ccccc12)NC(=O)CN)[C@@H](C)O)C(C)C)C(C)C)C(C)C)C(=O)O` gave an MIC of 8 µg/mL (CMCC 10104; 18 h, 37 °C).
`CC[C@H](C)[C@H](NC(=O)[C@H](CCC(N)=O)NC(=O)[C@@H]1CCCN1C(=O)[C@@H](NC(=O)[C@@H](NC(=O)[C@H](Cc1ccccc1)NC(=O)[C@H](C)NC(=O)[C@H](C)NC(=O)[C@H](CC(C)C)NC(=O)[C@H](CCCNC(=N)N)NC(=O)[C@H](C)NC(=O)[C@H](CC(C)C)NC(=O)[C@H](CC(C)C)NC(=O)CNC(=O)[C@@H](NC(=O)[C@@H](N)Cc1ccccc1)C(C)C)C(C)C)[C@@H](C)CC)C(=O)N[C@H](C(=O)N[C@@H](CCCCN)C(=O)N[C@@H](CCCNC(=N)N)C(=O)N[C@@H](Cc1ccccc1)C(=O)N[C@@H](CCC(N)=O)C(=O)N[C@@H](CCCCN)C(=O)N[C@@H](CCCCN)C(=O)N[C@@H](CC(N)=O)C(N)=O)C(C)C` gave an MIC of 25 µM (broth microdilution; ATCC 27853).

Repeated from above:
With `CC(C)[C@@H]1NC(=O)[C@@H]2CCCN2C(=O)[C@@H](C)NC(=O)[C@H](CO)NC(=O)[C@H](C)NC(=O)[C@H](C(C)(C)C)NC(=O)[C@H](CCO)NC(=O)[C@H](Cc2c[nH]c3ccccc23)NC(=O)[C@H](CCO)NC(=O)[C@@H](CCN)NC(=O)[C@H](CCC(N)=O)NC(=O)[C@H](CCN)NC(=O)[C@H](Cc2ccc(O)cc2)NC(=O)[C@H]([C@@H](C)O)NC1=O` the MIC was greater than 64 µg/mL (broth microdilution; NDM1, NRZ 08418, CAMHB with polysorbate-80; 16 h, 37 °C, with: 0.002% polysorbate-80).
With `CCCCCCCC(=O)NCCCC[C@@H]1NC(=O)[C@H](CCCNC(=N)N)NC(=O)[C@H](CCCNC(=N)N)NC(=O)[C@H](CCCNC(=N)N)NC(=O)[C@H](CCCNC(=N)N)NC(=O)[C@H](CCCNC(=N)N)NC1=O` the MIC was greater than 129 µg/mL (broth microdilution; PAO1; 37 °C).
